Published values gathered from unrelated publications.
Every numbered part comes from another study and shows a few of its results, in no order. Positions count from the first letter of the parent shown.

Set 1
Target: Ras GTPase-activating protein-binding protein 1, C-terminal RGG region (G3BP1, Homo sapiens, UniProt Q13283)
Chain of UniProt Q13283 (whole entry, looked up): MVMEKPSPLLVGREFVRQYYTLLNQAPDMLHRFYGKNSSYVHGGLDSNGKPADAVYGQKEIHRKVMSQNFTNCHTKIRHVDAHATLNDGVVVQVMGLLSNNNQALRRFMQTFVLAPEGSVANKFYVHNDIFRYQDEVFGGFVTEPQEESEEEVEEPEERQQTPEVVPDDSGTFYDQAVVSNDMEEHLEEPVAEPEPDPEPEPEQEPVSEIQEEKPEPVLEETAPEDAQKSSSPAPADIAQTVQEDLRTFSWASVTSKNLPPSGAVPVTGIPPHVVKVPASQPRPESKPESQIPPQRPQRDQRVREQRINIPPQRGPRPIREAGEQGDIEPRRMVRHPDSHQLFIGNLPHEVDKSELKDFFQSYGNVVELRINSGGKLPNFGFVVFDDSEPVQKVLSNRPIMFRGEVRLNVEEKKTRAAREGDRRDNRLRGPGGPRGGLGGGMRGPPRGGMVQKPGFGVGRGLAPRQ
Method: RNA Bind-n-Seq
Form: RNA
Matrix: in vitro
Concentration: 1 µM
Notes: whole 134-nt RNA, ends assumed
With: 150 mM KCl
Reference: input library
Direction: higher = stronger binding
Constant ends, left off below: GGGAGUUCUACAGUCCGACGAUC … UGGAAUUCUCGGGUGUCAAGG
| Oligonucleotide | log2 enrichment |
| --- | --- |
| UUCUGACUCAGAAUGUGCCAAAAAGGCUUUGGAACAACUUAAUGGAUUUGAACUAGCAGGAAGACCAAUGAAAGUUGGUCAUGUUACUGA | -1.64 |
| UGGCCCUGGUGGCAUGCGGGGAGGAAGAGGUGGCCUCAUGGAUCGUGGUGGUCCCGGUGGAAUGUUCAGAGGUGGCCGUGGUGGAGACAU | 3.4 |
| UGGAGAAGGAACGUGAUAAAGAAGUAAGCGAUGAUGAGGCUGAAGAAAAGGAAGACAAAGAAGAAGAAAAAGAAAAAGAAGAGAAAGAGU | -0.676 |
| UGGGUGGUGGAUUUUGUUUAUUUUUUUAGCUCAUUUCCAGGGGUGGGAAUUUUUUUUUAAUAUGUGUCAUGAAUAAAGUUGUUUUUGAAA | 3.04 |
| UAACUUUAGAGGAGGAUCUGAUGGAUAUGGCAGUGGACGUGGAUUUGGGGAUGGCUAUAAUGGGUAUGGAGGAGGACCGGGAGGUGGCAA | -0.653 |
| UAACUUUAGAGGCGGAUCUGAUGGAUAUGGCAGUGGACGUGGAUUUGGGGAUGGCUAUAAUGGGUAUGGAGGAGGACCUGGAGGUGGCAA | -1.4 |
| UCAAGUCCUGUGCUACACAUCGUAUGUACCGAAUCGGAAAAAGGAAAGGUUUGGAAAGUAUUAUGUUACGCCGUUCGGAUCUGCACUUCC | -1.47 |
| GCAGGAAGUAAAAACAAAUGGAAAUGCUUCGGAUAGUGGCAGGGUUGGGGGUUGCUAAGGAAAGGGUGGGAUGGGAGUGGGUAAAGAGUU | 1.52 |
| UGGGAGGUGGAUUUUGUUUAUUUUUUUAGCUCAUUUGCAGGGGUGGGAAUUUUUUUUUAAUAUGUGUCAUGAAUAAAGUUGUUUUUGAAA | 3.52 |
| CACAGACAACACGCACCCACACAGACACAGAGGGAAGGGGUUGGGAUGGGGACAGGGUGUACAGCAGGGCGGGGUAGGACCCCAGCCCCU | -0.653 |
| UAACUUUAGAGGAGGAUCUGAUGGAUAUGGCAGUGGACGUGGAUUUGGGGAUGGCUAUAAUGGGUAUGGAGGAGGACCUGGAGGUAGCAA | -0.955 |
| CCUGUGCUACACAUCGUAUGUACCGAAUCGGGGCCCCCCGGGGCCCCCCGGCCCCCCGGGGAAAGUAUUAUGUUACGCCGUUCGGAUCUG | -2.05 |
| UGGCCCUGGUGGCAUGCGGGGAGGAAGAGGUGGCCUCAUGGAUCGUGGUGGUCCCGGUGGAAUGUUCAGAGGUGGCCGUGGCGGAGACAG | 3.17 |
| GCAGGAAGUAAAAACAAAUGGAAAUGCUUCGGAUAGUGGCAGGGGUGGGGGUUGCUAAGGAAAGGGUGGGAUGGGAGUGGGUAAAAAAUU | 1.97 |

Set 2
Target: RNA binding protein fox-1 homolog 2, RRM domain, GST-SBP tag (RBFOX2, Homo sapiens, UniProt O43251-10, residues 100-194)
Method: RNA Bind-n-Seq
Form: RNA
Matrix: in vitro
Concentration: 365 nM
Notes: natural RNA segment, single round, ends assumed
Reference: no-protein control
Direction: higher = stronger binding
Constant ends, left off below: GGGAGUUCUACAGUCCGACGAUC … UGGAAUUCUCGGGUGCCAA
Residues (chain): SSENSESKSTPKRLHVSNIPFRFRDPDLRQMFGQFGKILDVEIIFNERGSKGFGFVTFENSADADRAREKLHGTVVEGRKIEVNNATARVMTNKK
| Oligonucleotide | RBNS enrichment (R) |
| --- | --- |
| GCUGCCCUGAGUGCCCACGCGAGGGCGGCCGCAAGUUGACUAAACGGGGACACACACGGCUGAACCUUCCCCACGGGACCCCGAGUGGCCCCACCCUGCCUCUUGUCCUG | 0.318 |
| AAUUGGGAAGUGCCUAGAGUCCAGGCCCCGAUCAUCAAAGAUGUCUAUAUUGUAUAAUAUUUAAAGUUAUUUUUAAUUUUCUCAAACAAUAUGAGAAUAUCUAUCUGGCA | 0.651 |
| CUUUUAAACACUAAAAUGUCUAAUUUAUACUUAAGGCUACAGAAGAGUAUUUAUGGGAAAGGCUGCCCAUGACCAGUGUGACUCAAAGCAAUGUGAUCUCCCUUGAUUCA | 0.52 |
| UUUACCCAGAGAAGGUGUUUCUAUACAAUGCCCCUACCUAUUUGAAAUUACAUGCUUGCCCAACACACUGUGAAAUAGUUACCAAAAUUUGUACAAAUGCAGCAUCUUCA | 1.01 |
| CCACCUUAGUGCCAGGGCCGAGGGCUGGUCUGCAUGCUGGAAGAGGUUGAGAGUUUUGGAAUUGAUUCCAUGCUAAAUGUCAGUUACCAGUUUGGAUUGAUGAAAGUGAU | 5.13 |
| AUCAUUUAUUUAUUGGUGCUACUGUUUAUCCGUAAUAAUUGUGGGGGAAAAAGAUAUUAACAUCACGUCUUUGUCUCUAGAGCAGUUUUCCGAGAUAUUCCGUAGUACAU | 0.538 |
| UAACCAUUAGUACUUACUGUGCAGGGAACCAAACCAAGGUCUGAGAAAUGCGGACACCCCGAGCGAGCACCCCAAAGUGCACAAAGCUGAGUAAAAAGCUGCCCCCUUCA | 0.225 |
| CCAUCUUCUUGGUUUGAAGCUUUAUCCAUGUAUCAUGUUCCGUGUAGCCAUUUUAUUUUUUAAGAAACUGCUAAUACUUUCUCCCUAAUGGAAGCCCUGAUCCCCCAGAG | 0.654 |
| ACGUGCUUUUAGCAGUUGGCUGGAAUGUGUUCACUAGGUUCCGUUAUGUUUGGUAAUAUCAUCUUGAAAAGUCCCUGUAAUAGAUCAAGGAGACUGCAUUCCCUGCCCUG | 0.438 |
| GGUGAGGCUGGGAGGAGGAAGACUGAGGUAGAGAUUCCAGGCCCUGGCAUAAGCUGAAUCCCAAAUUUGAGUUUGGGAAGAACCAGAGAGAAAUGGAUCCCUGAGCUCUG | 1.03 |
| CCCUCUCAGACCCACGCUCGCUCAGAGGCUCGUUGCUGGGCUGGCUUUGAGGGGCUGCUCUUCUCAUCUGGUGCCAAAAGUUCAUUUGCAGCUUCUACAACAAUCCCCAC | 0.447 |
| UGUCCCUUGCACCCUAUGAUUAUUCUCAUGCUGCACUUACUGUUUACAUUUGUUUUAUUGUACAUAGGUUUGUAAACAUUAUUGCCUAAGAUAUUUGUAUAUAACUUGGG | 0.404 |

Set 3
Target: NFE2L3, bZIP domain (human)
Method: DHFR protein complementation
Matrix: yeast
Notes: single substitutions, most at no-binding floor
Reference: wild-type JUN-FOS pair
Direction: higher = stronger binding
Parent: JUN, bZIP domain (human); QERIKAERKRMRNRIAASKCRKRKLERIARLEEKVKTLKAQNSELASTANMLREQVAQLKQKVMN; partner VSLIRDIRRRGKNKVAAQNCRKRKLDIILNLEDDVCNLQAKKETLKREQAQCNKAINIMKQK
| Change | binding fitness |
| --- | --- |
| E32C | -1.4 natural log |
| A46T | -1.57 natural log |
| A57M | -1.46 natural log |
| R30S | -1.45 natural log |
| S43M | -1.23 natural log |
| K34Y | -1.54 natural log |
| N42D | -1.49 natural log |
| A46V | -1.58 natural log |
| N42I | -1.28 natural log |
| L52P | -1.5 natural log |
| L38Q | -1.63 natural log |
| L45G | -1.56 natural log |
| R53L | -1.42 natural log |
| R30E | -1.46 natural log |
| N42C | -1.11 natural log |
| A46Q | -1.5 natural log |
| E32W | -1.53 natural log |
| Q41A | -1.38 natural log |
| A49D | -1.55 natural log |
| E44L | -1.48 natural log |

Set 4
Target: Histone acetyltransferase KAT6A, both winged helices, GST fusion (KAT6A, Homo sapiens, UniProt Q92794, residues 1-181)
Method: protein binding microarray
Form: double-stranded DNA, one strand shown
Matrix: in vitro
Concentration: not given
Notes: 8-mer, flanks averaged, mean of 2 arrays, mostly near background
Reference: not given
Direction: higher = stronger binding
Residues (chain): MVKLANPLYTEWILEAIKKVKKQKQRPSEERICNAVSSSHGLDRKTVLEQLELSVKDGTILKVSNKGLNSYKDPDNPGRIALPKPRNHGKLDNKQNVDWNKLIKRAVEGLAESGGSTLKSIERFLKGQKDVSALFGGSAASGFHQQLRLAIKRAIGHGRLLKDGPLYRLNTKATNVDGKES
| Oligonucleotide | E-score |
| --- | --- |
| GGAGCTCA | -0.0863 |
| ACCAGTTA | -0.232 |
| AACAATCT | -0.0621 |
| ACCAAATG | -0.153 |
| GGCATAAA | 0.0954 |
| GCCTACAA | -0.07 |
| ACTCTGGG | -0.183 |
| ACGCGGGG | 0.181 |
| AGAGCTCT | -0.0764 |
| ACGCGTAG | 0.273 |
| CTGGCCCC | -0.231 |
| GCACTCAC | -0.0118 |
| ACATTGGC | -0.17 |
| CCAGACCA | -0.189 |
| CAGTTCAG | -0.0707 |
| TAGTCATA | -0.125 |
| TCCGGTAA | 0.0807 |
| GAATGATA | 0.02 |
| CCTAGTGC | 0.0262 |

Set 5
Target: CCNB2, cyclin fold, Cln2 fusion (human)
Method: yeast growth competition, sequencing
Matrix: yeast
Notes: strong parent motif
Reference: not given
Direction: higher = stronger binding
Parent: BRCA2 docking peptide (human); PSIKRNLLNEFDR
| Change | normalised enrichment score |
| --- | --- |
| R5P | 0.111 |
| L7A | -0.121 |
| P1F | 2.97 |
| N9P | 3.74 |
| N9W | 4.02 |
| S2H | 2.46 |
| N6L | 0.513 |
| K4S | 2.26 |
| L8E | 2.2 |
| E10G | 0.0996 |
| R5Q | 1.32 |
| S2T | 3.31 |
| P1C | 4.32 |
| P1W | 3.77 |
| N9H | 3.63 |
| E10W | 0.237 |
| D12S | 3.05 |
| P1L | 3.4 |
| R13I | 4.44 |
| N6P | 0.649 |
| K4A | 3.3 |
| E10F | 0.833 |

Further values, each from its own experiment
| Substance | target | test | system | conditions | scale | quantity | value |
| --- | --- | --- | --- | --- | --- | --- | --- |
| PhoQ, residues 284 288 289 292 302 303 SLSLLA | PhoP, residues 12 14 15 18 19 NHTVL (Escherichia coli, UniProt P23836) | Sort-seq, refers to: YFP reporter | E. coli | PhoQ-PhoP variant library, with: 10 µM Mg2+ | reference: high Mg2+ state, higher = stronger signaling | fold induction | 2.88 |

Repeated from above (set 5):
| Change | normalised enrichment score |
| --- | --- |
| L8E | 2.2 |
| P1C | 4.32 |
| N6L | 0.513 |
| R5P | 0.111 |
| E10W | 0.237 |
| N9H | 3.63 |
| P1L | 3.4 |
| L7A | -0.121 |
| S2H | 2.46 |
| K4A | 3.3 |
| N9P | 3.74 |
